Measurements from different studies.
Lines come from different studies, so protocols differ. Several values in a cell are separate wells, animals, samples, runs or records. ± gives the spread as reported.

With `F[C@@H]1[C@H](c2ccc(-c3cncnc3)cc2)[C@H](F)[C@H](F)C[C@@H]1F` the hepatic clearance was 27 mL/min/kg (liver microsome stability; rat liver microsomes; 1 µM).
With `CC(=O)[O-].O.O.[O-]c1ccc(Br)cc1C=NCCN1CCOCC1.[Zn+2]` the inhibition was 18.3% (DPPH radical scavenging; 80 µM).
For `CCCCCc1ccc(S(=O)(=O)N2CC2C(=O)OC)cc1` (stereo not drawn), “tumour growth inhibition” read 69% (mouse, Lewis lung carcinoma; intraperitoneal, 5 mg/kg, 16 doses, day 14).
Under “activated partial thromboplastin time”, `COC1OC(C)C(OC2OC(C)C(OS(=O)(=O)O)C(OC3OC(C)C(OC4OC(C)C(OS(=O)(=O)O)C(OC5OC(C)C(OC6OC(C)C(OS(=O)(=O)O)C(OS(=O)(=O)O)C6OS(=O)(=O)O)C(OS(=O)(=O)O)C5OS(=O)(=O)O)C4OS(=O)(=O)O)C(OS(=O)(=O)O)C3OS(=O)(=O)O)C2OS(=O)(=O)O)C(OS(=O)(=O)O)C1OS(=O)(=O)O` (stereo not drawn) is recorded as 118 s and 114 s and 109 s (human plasma; 64 µg/mL).
For `COc1cc2c(NC3CCN(C(C)C)CC3)cc(N3CCOCC3)nc2cc1OCCCN1CCCC1`, “protein level difference” read 0.0856 (TMT proteomics, refers to: MDH1; 5xFAD mice, hippocampus; dose not given, unit not given; baseline: untreated 5xFAD).
`COC1CN([C@H]2CC[C@H]([C@@]3(C)Oc4c(Cl)cc(C(=O)NCc5c(SC)cc(C)[nH]c5=O)c(C)c4O3)CC2)C1`: “log2 fold change” 0.447 (RNA-seq, refers to: SCARF2 mouse homolog; mouse, HT-1376 xenograft, whole blood; dose not given; baseline: vehicle).
The %ΔTGI of `Nc1nc2cc(CC[C@H]3C[C@@H](n4ccc5c(N)ncnc54)[C@H](O)[C@@H]3O)ccc2cc1Br` is reported as 109% (NCI-H520 xenograft, mouse; 10.0 mg/kg/day, day 27).
`COC1OC(C)C(OC2OC(C)C(O)C(OC3OC(C)C(OC4OC(C)C(O)C(OC5OC(C)C(O)C(OS(=O)(=O)O)C5OS(=O)(=O)O)C4OS(=O)(=O)O)C(OS(=O)(=O)O)C3OS(=O)(=O)O)C2OS(=O)(=O)O)C(OS(=O)(=O)O)C1OS(=O)(=O)O` (stereo not drawn) — result for “activated partial thromboplastin time”: 56.6 ± 0.3 s (human plasma; 128 µg/mL).
`COc1ccc(NC(=O)c2ccc3[nH]c(-c4ccc(N(C)C)cc4)nc3c2)cn1` gave a tumour volume of 121 mm3 and 95.2 mm3 and 43.5 mm3 and 66 mm3 and 56.8 mm3 (CT26, BALB/c mice, subcutaneous syngeneic graft; dose not given, day 4).
The tumour volume of `COc1cc(N2CCN(C(=O)C3CCCN3)CC2)ccc1Nc1ncc(Cl)c(Nc2ccccc2P(C)(C)=O)n1` (stereo not drawn) is reported as 40.8 mm3 and 44.9 mm3 and 43.3 mm3 and 39 mm3 and 79.2 mm3 (nude mice, NCI-H3122 xenograft; intraperitoneal, 10 mg/kg every other day, day 3).
`COC1OC(C)C(OC2OC(C)C(OS(=O)(=O)O)C(OC3OC(C)C(OC4OC(C)C(OS(=O)(=O)O)C(OC5OC(C)C(OC6OC(C)C(OS(=O)(=O)O)C(OC7OC(C)C(OS(=O)(=O)O)C(OS(=O)(=O)O)C7OS(=O)(=O)O)C6OS(=O)(=O)O)C(OS(=O)(=O)O)C5OS(=O)(=O)O)C4OS(=O)(=O)O)C(OS(=O)(=O)O)C3OS(=O)(=O)O)C2OS(=O)(=O)O)C(OS(=O)(=O)O)C1OS(=O)(=O)O` (stereo not drawn): “activated partial thromboplastin time” 54.3 s and 54.1 s and 54.4 s (human plasma; 8 µg/mL).
For `Cc1ccc(-c2ccc(C3CCCCC3)cc2)cn1`, the hepatic clearance was 11 mL/min/kg (liver microsome stability; human liver microsomes; 1 µM, without NADPH).

A few entries again:
With `CC(=O)[O-].O.O.[O-]c1ccc(Br)cc1C=NCCN1CCOCC1.[Zn+2]` the inhibition was 18.3% (DPPH radical scavenging; 80 µM).
For `CCCCCc1ccc(S(=O)(=O)N2CC2C(=O)OC)cc1` (stereo not drawn), “tumour growth inhibition” read 69% (mouse, Lewis lung carcinoma; intraperitoneal, 5 mg/kg, 16 doses, day 14).
